Experimental data pooled from the literature.
Each line is one published result; not all experiments were run side by side. Several values in a cell are separate wells, animals, samples, runs or records. ± gives the spread as reported.

Under “mean arterial pressure decline”, `CC(CCc1ccc(O)cc1)NCCc1ccc(O)c(O)c1` (centres unmarked) is recorded as 3% (anaesthetised instrumented rat; iv infusion, 1 µg/kg/min, end of infusion; reference: baseline).
`CC(=O)N[C@@H](CC(N)=O)C(=O)N[C@@H](CC(N)=O)C(=O)N[C@@H](CC(C)C)C(=O)N[C@H]1CSSC[C@@H](C(=O)N[C@H](C(N)=O)[C@@H](C)O)NC(=O)[C@H](CCCNC(=N)N)NC(=O)[C@H](Cc2c[nH]cn2)NC(=O)[C@H](Cc2cccc3ccccc23)NC(=O)CNC(=O)[C@H](Cc2c[nH]c3ccccc23)NC(=O)[C@H](CC(=O)O)NC(=O)[C@H](CCC(N)=O)NC(=O)[C@H](Cc2c[nH]c3ccccc23)NC(=O)[C@H](C(C)C)NC1=O` gave an IC50 of 1.88 ± 0.09 µM (complement activation, inhibitor, ELISA, refers to: C5b-9; normal human serum).
For `O=S1(=O)C=C(Sc2nc3ccccc3o2)c2ccccc21`, the IC50 was over 125 µM (CoA-CPM signal reduction, CPM fluorescence thiol; cell-free biochemical; assay interference counter-screen, added: CoA replacing acetyl-CoA).
Under “IL4 level difference”, `N#CC[C@H](C1CCCC1)n1cc(-c2ncnc3[nH]ccc23)cn1` is recorded as 20.2 (mouse, oxazolone dermatitis, plasma; oral, 90 mg/kg, once daily, unit not given; reference: vehicle).
With `Nc1ncnc2[nH]c(S)nc12` the IC50 was 220 ± 90 µM (CoA-CPM signal reduction, CPM fluorescence thiol; cell-free biochemical; assay interference counter-screen, added: CoA replacing acetyl-CoA).
For `Cc1noc(C)c1-c1cc(C(O)(c2ccccn2)c2ccccn2)c2nc(C3CC3)[nH]c2c1`, the maximum inhibition was 57.6% (refers to: CCR2 expression; human, peripheral blood; 4 mg, day 8, 1599 study).
Under “Sirius Red staining”, `CCc1c(C)nc(-c2ccc(Cl)s2)nc1Nc1ccc(CC(=O)O)cc1` is recorded as “decreased” (mice, chronic ethanol plus binge, liver; intraperitoneal, 0.3 mg/kg daily, ethanol diet 4 weeks, dosed last two; reference: vehicle).
For `O=C(O)CNC(=O)Cc1ccccc1`, the sarcomere length was 1.63 µm (ventricular cardiomyocytes, C57BL/6 mouse; dose not given, 0.568 s).
`C=CC(=O)N1CCC(c2ccc(C(N)=O)c(-c3ccc(Oc4ccccc4)cc3)n2)CC1` has a PR of 50% (tumour response, Lugano classification; patients with relapsed/refractory MCL; investigator assessed, 16.4 months follow-up).
`O=C(Cc1ccc(-c2ccccc2)cc1)NC1CS(=O)(=O)c2ccccc21` (centres unmarked) has an IC50 of over 125 µM (CoA-CPM signal reduction, CPM fluorescence thiol; cell-free biochemical; assay interference counter-screen, added: CoA replacing acetyl-CoA).
Under “relative refractory period”, `C[C@H](Oc1ccc(Br)cc1-c1ccon1)C(=O)O` is recorded as 2.98 ms (muscle velocity recovery cycles; human, tibialis anterior muscle; 1200 mg single dose, 3.5 h).
`CC1=NN(c2ccccc2)C(=O)C1` — result for “cerebral blood flow”: 102% (rat, MCAO/R model; intravenous, dose not given, daily dosing, measured day 3 after surgery).
`Cc1cc(C)nc(SC2=CS(=O)(=O)c3ccccc32)n1` has an IC50 of over 125 µM (CoA-CPM signal reduction, CPM fluorescence thiol; cell-free biochemical; assay interference counter-screen, added: CoA replacing acetyl-CoA).
`CC1(C)C=C(CNc2ccc3c(c2)Cc2cc(Br)ccc2-3)C(C)(C)N1[O]` — result for “T2 relaxation time”: 31 ms (MRI, MSME; wild-type mice, brain; iv, 3 mg/kg, 24 h).
`CN(C)C(=O)c1cc2cnc(Nc3ccc(N4CCNCC4)cn3)nc2n1C1CCCC1` — result for “normalized enrichment score”: -2.19 (RNA-seq GSEA, refers to: HALLMARK_MYOGENESIS; MB002 tumour; concentration not given, in vivo; reference: vehicle, direction not given).
For `CN(C)C(=O)Oc1cccc([N+](C)(C)C)c1`, the train-of-four ratio was 96.6 (neuromuscular block reversal; rat; dose not given, 14.5 (unit not given), added: cisatracurium; reference: T1 twitch).
For `CC1(C)CCC(CN2CCN(c3ccc(C(=O)NS(=O)(=O)c4ccc(NCC5CCOCC5)c([N+](=O)[O-])c4)c(Oc4cnc5[nH]ccc5c4)c3)CC2)=C(c2ccc(Cl)cc2)C1`, the EC50 was 1.1 µM (cell kill; primary neoplastic B cells, dog 24; 24 h, unspecified B-cell neoplasm).
For `Cn1cc(Nc2nccc(-c3ccc4c(c3)CN(C3COC3)CC[C@H]4NC(=O)c3cn(C(C)(C)C)nn3)n2)cn1`, “pathway activation z-score” read 0.302 (refers to: Myc Mediated Apoptosis Signaling; splenic B cells, mouse; in vivo, 30 mg/kg, IgD-activated B cells; reference: vehicle, positive = activation).
`NC(=O)c1cnc2[nH]ccc2c1N[C@@H]1[C@@H]2CC3C[C@H]1C[C@@](O)(C3)C2` gave a percent change of -1.65% (total naive T cells, flow cytometry; Caucasian humans, peripheral blood; 20 mg single dose; reference: baseline).
Under “p4EBP1 change from baseline”, `CO[C@H]1CC[C@H](N2C(=O)CNc3ncc(-c4ccc(C(C)(C)O)nc4)nc32)CC1` is recorded as -1.7% (flow cytometry; stimulated T cells, human, blood; 45 mg single dose, 24 h, mean; reference: baseline).
For `CCNc1nc2c(c(N3CC(=O)Nc4cc(OC)ccc43)n1)CCC2`, “cleaved caspase-3 level” read “increased” (immunohistochemistry; mouse, A-375/TxR xenograft, tumour; 2 or 4 mg/kg; reference: control).
For `O=C(NNC1CC(=O)N(c2ccc(Br)cc2)C1=O)c1cccnc1` (centres unmarked), the IC50 was over 125 µM (CoA-CPM signal reduction, CPM fluorescence thiol; cell-free biochemical; assay interference counter-screen, added: CoA replacing acetyl-CoA).
With `CO[C@@H]1[C@@H](OC(N)=O)[C@@H](O)[C@H](Oc2ccc3c(O)c(NC(=O)c4ccc(O)c(CC=C(C)C)c4)c(=O)oc3c2C)OC1(C)C` the colony survival was 12.3% and 28.3% and 24.6% and 9.62% and 11.8% (Brca1 cc/cc MEFs, mouse; 200 µM).
`N#Cc1ccc2c(-c3ccncc3)c(-c3ccc(F)cc3)nn2c1`: “log2 fold change” -0.339 (kinase binding, competitor, MIB/MS competition, refers to: HRR25; Candida albicans cell lysate; 100 nM; reference: DMSO).
Under “blood glucose concentration”, `CO[C@H]1C[C@@H]2CC[C@@H](C)[C@@](O)(O2)C(=O)C(=O)N2CCCC[C@H]2C(=O)O[C@H]([C@H](C)C[C@@H]2CC[C@@H](O)[C@H](OC)C2)CC(=O)[C@H](C)/C=C(\C)[C@@H](O)[C@@H](OC)C(=O)[C@H](C)C[C@H](C)/C=C/C=C/C=C/1C` is recorded as 158 mg/dL (healthy adult horses, blood; intravenous, 0.06 mg/kg, 120 min, oral glucose test 4 h post-dose).
Under “percent change from baseline”, `C[C@H]1C[C@H]2CSC(N)=N[C@@]2(c2nc(NC(=O)c3ccc(OC(F)F)cn3)cs2)CO1` is recorded as -33% (refers to: total Aβ; healthy adults, plasma; 40 mg single dose, 48 h post-dose; reference: placebo).
`CSCCNc1nc(SCCC(F)(F)F)nc2c1ncn2[C@@H]1O[C@H](COP(=O)(O)OP(=O)(O)C(Cl)(Cl)P(=O)(O)O)[C@@H](O)[C@H]1O`: “patients with IPA above threshold” 0% (platelet aggregation, light transmittance aggregometry; human, platelet-rich plasma; dose not given, 30 min, IPA above 80 %, added: TRAP 15 µM; reference: patients).
For `O=C(O)CCC(=O)O.[2H]C([2H])([2H])Oc1cc(C)c2[nH]ccc2c1CN1CC[C@@H](C2CC2)C[C@H]1c1ccc(C(=O)O)cc1`, the maximum inhibition was 48.8% (EIA, refers to: complement fragment Bb; human, plasma; 125 mg twice daily, multiple ascending dose).
For `CC[C@H](C)/C=C/C(=O)N1C[C@@H](C)C[C@H]1C(=O)N[C@@H](CCC1CCCCC1)C(=O)N[C@H](C(=O)NC(C)(C)C(=O)N[C@@H](CC(C)C)C(=O)N[C@@H](CC(C)C)C(=O)NC(C)(C)C(=O)NC(C)(C)C(=O)NCCC(=O)N[C@@H](C)CN(C)C)[C@H](O)C(C)C`, the calcein leakage was 32.4% (small unilamellar vesicles; concentration not given).
The sarcomere length of `CC(C)NCC(O)c1ccc(O)c(O)c1` (centres unmarked) is reported as 1.72 µm (ventricular cardiomyocytes, C57BL/6 mouse; dose not given, 0.024 s).
The inhibition of `CN[C@@H]1COc2c(S(=O)(=O)NC(=O)Nc3c4c(cc5c3CCC5)CCC4)cnn2C1` is reported as 98.2% (refers to: IL-18; human participants, whole blood ex vivo; 1800 mg single dose, 1 h, IL-18, circulating, adjusted for, added: LPS/ATP; reference: baseline).
For `CCCC(CCC)C(=O)Oc1cccc(C(O)CCN)c1.O=CO` (centres unmarked), the ONL thickness was 16.9 µm and 23.1 µm and 51.7 µm and 32.7 µm and 20.3 µm and 56.9 µm (OCT at 500 µm from nerve head; Abca4-/-Rdh8-/- mice, photic damage; oral, 50 mg/kg, 7 days, added: 10,000 lx light, 30 min).
Under “singlet oxygen quantum yield”, `[Cl][Ru][Cl].c1cnc2c(c1)ccc1cccnc12.c1cnc2c(c1)ccc1cccnc12.c1cnc2c(c1)ccc1cccnc12` is recorded as 53% (air-saturated acetonitrile).
`CCCCOc1nc(N)c2c(n1)N(Cc1cccc(CN3CCCC3)c1)CC(=O)N2` — result for “TLR7 mRNA level”: “increased” (qPCR; human, blood; dose not given, three dosing periods; reference: baseline).
`Cc1cn(-c2ccc3n(c2=O)CCN([C@@H](C)[C@@H]2CC[C@H](c4cc(F)c(Cl)cc4C(F)(F)F)O2)C3=O)cn1` — result for “maximum CSF Aβ42 change”: -38.9% (human, CSF; 300 mg single dose, serial CSF sampling; reference: placebo and baseline).

Excerpt of the above:
Under “singlet oxygen quantum yield”, `[Cl][Ru][Cl].c1cnc2c(c1)ccc1cccnc12.c1cnc2c(c1)ccc1cccnc12.c1cnc2c(c1)ccc1cccnc12` is recorded as 53% (air-saturated acetonitrile).
`Cc1cc(C)nc(SC2=CS(=O)(=O)c3ccccc32)n1` has an IC50 of over 125 µM (CoA-CPM signal reduction, CPM fluorescence thiol; cell-free biochemical; assay interference counter-screen, added: CoA replacing acetyl-CoA).
For `CC[C@H](C)/C=C/C(=O)N1C[C@@H](C)C[C@H]1C(=O)N[C@@H](CCC1CCCCC1)C(=O)N[C@H](C(=O)NC(C)(C)C(=O)N[C@@H](CC(C)C)C(=O)N[C@@H](CC(C)C)C(=O)NC(C)(C)C(=O)NC(C)(C)C(=O)NCCC(=O)N[C@@H](C)CN(C)C)[C@H](O)C(C)C`, the calcein leakage was 32.4% (small unilamellar vesicles; concentration not given).
`Cc1cn(-c2ccc3n(c2=O)CCN([C@@H](C)[C@@H]2CC[C@H](c4cc(F)c(Cl)cc4C(F)(F)F)O2)C3=O)cn1` — result for “maximum CSF Aβ42 change”: -38.9% (human, CSF; 300 mg single dose, serial CSF sampling; reference: placebo and baseline).
`CC1=NN(c2ccccc2)C(=O)C1` — result for “cerebral blood flow”: 102% (rat, MCAO/R model; intravenous, dose not given, daily dosing, measured day 3 after surgery).
